Assay results gathered from unrelated publications.
Every numbered part comes from another study and shows a few of its results, in no order.

Sample 1 — method: protein binding microarray; form: double-stranded DNA, one strand shown; sample: in vitro; tested at: not given; reference: not given; direction: higher = stronger binding
Target: Histone acetyltransferase KAT6A, winged helix 2, GST fusion (KAT6A, Homo sapiens, UniProt Q92794, residues 85-181)
Notes: 8-mer, flanks averaged, mean of 2 arrays, mostly near background
Residues (chain): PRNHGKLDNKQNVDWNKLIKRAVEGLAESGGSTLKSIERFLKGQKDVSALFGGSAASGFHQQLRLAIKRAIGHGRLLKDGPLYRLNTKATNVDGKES
Sequence | E-score
AAACCTCC | -0.16
ACTGAAAA | 0.0602
ATGATCGG | -0.0344
CATGTTCC | -0.102
AGTAATAG | -0.111
AGCCCTAG | -0.0648

Sample 2 — method: protein-binding microarray; form: double-stranded DNA, one strand shown; sample: in vitro; tested at: 0.8 µM; notes: whole 60-bp probe, no competitor; direction: higher = stronger binding
Target: Centromere-binding protein 1, full length, N-terminal tag (CBF1, Saccharomyces cerevisiae, UniProt P17106, residues 1-351)
Chain of UniProt P17106 (whole entry, looked up): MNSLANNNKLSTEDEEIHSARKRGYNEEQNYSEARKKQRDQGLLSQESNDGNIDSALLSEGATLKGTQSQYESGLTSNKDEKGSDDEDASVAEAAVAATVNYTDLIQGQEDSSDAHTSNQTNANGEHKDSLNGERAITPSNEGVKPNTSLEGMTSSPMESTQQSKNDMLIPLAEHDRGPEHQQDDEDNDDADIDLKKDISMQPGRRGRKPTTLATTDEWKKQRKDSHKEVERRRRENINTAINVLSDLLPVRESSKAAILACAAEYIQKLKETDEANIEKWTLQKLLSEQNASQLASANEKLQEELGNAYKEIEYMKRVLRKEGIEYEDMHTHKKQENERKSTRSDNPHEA
Sequence | fluorescence intensity [a.u.]
GAAAAACATCGTTAACATCACTCAACCGGGGTGTAGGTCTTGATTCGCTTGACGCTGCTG | 530
GAAATGATATAATATCACCTCACGCATGCCTATTAGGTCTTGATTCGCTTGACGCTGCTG | 555
TGTACGAAGCTATGTGATATTTCTATAGTAGTTAGGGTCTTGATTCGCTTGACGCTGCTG | 540
GAATTAGTTTGAACTCACGTGTTGCTGCTGAATTAGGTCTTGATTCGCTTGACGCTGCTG | 3980
CTATGGCTCAGTAACCTCGTGATAGAAAAAGGGTTCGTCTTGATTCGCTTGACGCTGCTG | 2430
GAAGAGAACGAATTCCAGGTGATTCCGATAAGATAGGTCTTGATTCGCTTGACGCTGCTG | 594
GAATTACTTATATATCACCTGCCGTCTCAGACGTAGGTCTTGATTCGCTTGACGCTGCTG | 938

Sample 3 — method: universal PBM; form: double-stranded DNA, one strand shown; sample: in vitro; tested at: 600 nM; direction: higher = stronger binding
Target: Sal-like protein 4, full length isoform A (SALL4, Homo sapiens, UniProt Q9UJQ4, residues 1-1053)
Chain of UniProt Q9UJQ4 (whole entry, looked up): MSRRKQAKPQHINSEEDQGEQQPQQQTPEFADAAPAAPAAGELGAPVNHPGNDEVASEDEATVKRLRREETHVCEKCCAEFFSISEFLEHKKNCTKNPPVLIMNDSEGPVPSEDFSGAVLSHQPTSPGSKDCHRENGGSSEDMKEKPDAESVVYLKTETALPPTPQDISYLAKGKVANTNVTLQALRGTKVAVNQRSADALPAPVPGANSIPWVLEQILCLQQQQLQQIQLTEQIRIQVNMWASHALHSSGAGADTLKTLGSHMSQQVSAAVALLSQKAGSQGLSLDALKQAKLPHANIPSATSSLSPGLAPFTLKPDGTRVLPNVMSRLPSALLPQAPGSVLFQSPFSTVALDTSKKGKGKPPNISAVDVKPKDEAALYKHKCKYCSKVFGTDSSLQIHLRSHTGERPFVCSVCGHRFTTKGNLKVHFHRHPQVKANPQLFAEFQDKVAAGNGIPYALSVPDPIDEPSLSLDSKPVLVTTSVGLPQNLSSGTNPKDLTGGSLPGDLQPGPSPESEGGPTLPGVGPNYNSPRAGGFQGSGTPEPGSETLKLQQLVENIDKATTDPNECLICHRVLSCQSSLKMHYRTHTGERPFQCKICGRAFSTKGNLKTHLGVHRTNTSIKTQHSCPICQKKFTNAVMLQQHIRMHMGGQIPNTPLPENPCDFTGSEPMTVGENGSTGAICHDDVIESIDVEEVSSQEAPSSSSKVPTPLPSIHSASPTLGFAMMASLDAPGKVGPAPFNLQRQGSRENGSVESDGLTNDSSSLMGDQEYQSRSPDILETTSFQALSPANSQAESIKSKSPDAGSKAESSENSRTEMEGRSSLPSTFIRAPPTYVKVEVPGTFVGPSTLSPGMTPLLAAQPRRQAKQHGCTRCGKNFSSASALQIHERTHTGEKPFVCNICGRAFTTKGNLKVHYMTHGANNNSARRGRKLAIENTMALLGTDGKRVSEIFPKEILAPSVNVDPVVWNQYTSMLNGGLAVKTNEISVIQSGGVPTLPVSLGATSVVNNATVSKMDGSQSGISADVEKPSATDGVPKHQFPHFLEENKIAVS
Notes: 8-mer, flanks averaged, mean of replicates
Sequence | E-score
GAAGTCTA | 0.109
ACCGGAGG | -0.278
CAACGCGG | -0.246
CCGGAGAA | -0.213
ACTTTTAG | 0.109
AAAAGATA | 0.296

Single results of other studies
Substance | target | assay | system | setting | scale | quantity | value
PhoQ, residues 284 288 289 292 302 303 SLSVQF | PhoP, residues 12 14 15 18 19 STWGI (Escherichia coli, UniProt P23836) | Sort-seq, item: YFP reporter | E. coli | PhoQ-PhoP variant library, together with: 10 µM Mg2+ | reference: high Mg2+ state, higher = stronger signaling | fold induction | 18.2

A few entries again (sample 1):
Sequence | E-score
AAACCTCC | -0.16
ACTGAAAA | 0.0602
ATGATCGG | -0.0344
